# Results of several laboratories.
# Protocols differ between the studies behind these lines. ± marks the error that the study gave.
Structure (SMILES),test,test system,conditions,scale,endpoint,result
N=C(N)NCCC[C@@H]1NC(=O)[C@H](CCCCNC(=O)CC[C@H](NC(=O)CCOCCOCCOCCOCCNC(=O)CC[C@H](NC(=O)CN2CCN(CC(=O)O)CCN(CC(=O)O)CCN(CC(=O)O)CC2)C(=O)NCCOCCOCCOCCOCCC(=O)N[C@@H](CCC(=O)NCCCC[C@@H]2NC(=O)[C@@H](Cc3ccccc3)NC(=O)[C@H](CC(=O)O)NC(=O)CNC(=O)[C@H](CCCNC(=N)N)NC2=O)C(=O)NCCCC[C@@H]2NC(=O)[C@@H](Cc3ccccc3)NC(=O)[C@H](CC(=O)O)NC(=O)CNC(=O)[C@H](CCCNC(=N)N)NC2=O)C(=O)NCCCC[C@@H]2NC(=O)[C@@H](Cc3ccccc3)NC(=O)[C@H](CC(=O)O)NC(=O)CNC(=O)[C@H](CCCNC(=N)N)NC2=O)NC(=O)[C@@H](Cc2ccccc2)NC(=O)[C@H](CC(=O)O)NC(=O)CNC1=O [indium-111 labelled],,"athymic nude mice, female, U-87 MG glioma xenograft, tumour and lungs","intravenous, 72 h",reference: tumour over lungs,tumour to tissue ratio,8.94 ± 5.37
CCCC[C@H](NC(=O)CNC(=O)CNC(=O)c1ccc(NN)nc1)C(=O)N[C@H]1CC(=O)NCCCC[C@@H](C(N)=O)NC(=O)[C@H](Cc2c[nH]c3ccccc23)NC(=O)[C@H](CCCNC(=N)N)NC(=O)[C@@H](Cc2ccccc2)NC(=O)[C@H](Cc2c[nH]cn2)NC1=O [technetium-99m labelled],,"C57 mouse, B16/F1 melanoma","2 h, together with: L-lysine",reference: tumour over blood,uptake ratio,157
CCCC[C@H](NC(=O)CCCCCCCNC(=O)c1ccc(NN)nc1)C(=O)N[C@H]1CC(=O)NCCCC[C@@H](C(N)=O)NC(=O)[C@H](Cc2c[nH]c3ccccc23)NC(=O)[C@H](CCCNC(=N)N)NC(=O)[C@@H](Cc2ccccc2)NC(=O)[C@H](Cc2c[nH]cn2)NC1=O [technetium-99m labelled],,"C57 mouse, B16/F1 melanoma, stomach","intravenous, 4 h",,uptake,0.73 ± 0.21 %ID/g
N=C(N)NCCC[C@@H]1NC(=O)[C@H](CCCCNC(=O)c2ccc(CNC34CNCCNCC(NCc5ccc(C(=O)NCCCC[C@@H]6NC(=O)[C@@H](Cc7ccc(O)cc7)NC(=O)[C@H](CC(=O)O)NC(=O)CNC(=O)[C@H](CCCNC(=N)N)NC6=O)cc5)(CNCCNC3)CNCCNC4)cc2)NC(=O)[C@@H](Cc2ccc(O)cc2)NC(=O)[C@H](CC(=O)O)NC(=O)CNC1=O [copper-64 labelled],radio-HPLC,PBS,up to 20 h,,free 64Cu,not detected
N=C(N)NCCC[C@@H]1NC(=O)[C@H](CCCCNC(=O)CCOCCOCCOCCOCCNC(=O)CC[C@H](NC(=O)CCOCCOCCOCCOCCNC(=O)CC[C@H](NC(=O)CN2CCN(CC(=O)O)CCN(CC(=O)O)CCN(CC(=O)O)CC2)C(=O)NCCOCCOCCOCCOCCC(=O)N[C@@H](CCC(=O)NCCOCCOCCOCCOCCC(=O)NCCCC[C@@H]2NC(=O)[C@@H](Cc3ccccc3)NC(=O)[C@H](CC(=O)O)NC(=O)CNC(=O)[C@H](CCCNC(=N)N)NC2=O)C(=O)NCCOCCOCCOCCOCCC(=O)NCCCC[C@@H]2NC(=O)[C@@H](Cc3ccccc3)NC(=O)[C@H](CC(=O)O)NC(=O)CNC(=O)[C@H](CCCNC(=N)N)NC2=O)C(=O)NCCOCCOCCOCCOCCC(=O)NCCCC[C@@H]2NC(=O)[C@@H](Cc3ccccc3)NC(=O)[C@H](CC(=O)O)NC(=O)CNC(=O)[C@H](CCCNC(=N)N)NC2=O)NC(=O)[C@@H](Cc2ccccc2)NC(=O)[C@H](CC(=O)O)NC(=O)CNC1=O [indium-111 labelled],,"athymic nude mouse, U-87 MG xenograft, tumour",,,washout half-life,~40 h
Cc1ncsc1-c1ccc(CNC(=O)[C@@H]2C[C@@H](OC(=O)OCCSSCCn3cc(CCCC(=O)N[C@@H](Cc4ccc(O)cc4)C(=O)N[C@@H](CCCNC(=N)N)C(=O)N[C@@H](CCCNC(=N)N)C(=O)N[C@@H](CCCNC(=N)N)C(=O)N[C@@H](CCCNC(=N)N)C(=O)N[C@@H](CCCNC(=N)N)C(=O)N[C@@H](CCCNC(=N)N)C(=O)N[C@@H](CCCNC(=N)N)C(=O)N[C@@H](CCCNC(=N)N)C(=O)N[C@@H](CCCNC(=N)N)C(N)=O)nn3)CN2C(=O)[C@@H](NC(=O)COCCOCCOCCNC(=O)C[C@@H]2N=C(c3ccc(Cl)cc3)c3c(sc(C)c3C)-n3c(C)nnc32)C(C)(C)C)cc1,UHPLC,PBS,"100 nM, 2 h, 37 °C, together with: 5 mM glutathione",reference: total peak area,released payload,100%
CSCC[C@H](NC(=O)[C@H](CC(C)C)NC(=O)[C@H](Cc1c[nH]cn1)NC(=O)CNC(=O)[C@@H](NC(=O)[C@H](C)NC(=O)[C@H](Cc1c[nH]c2ccccc12)NC(=O)[C@H](CCC(N)=O)NC(=O)CCCCNC(=O)CSCCSCCP(CO)CO)C(C)C)C(N)=O [technetium-99m labelled],,"female CF-1 mouse, urine","intravenous, dose not given, 24 h",,urinary excretion,38%
N=C(N)NCCC[C@@H]1NC(=O)[C@H](CCCCNC(=O)CNC(=O)CNC(=O)CNC(=O)CC[C@H](NC(=O)CCOCCOCCOCCOCCNC(=O)CC[C@H](NC(=O)CN2CCN(CC(=O)O)CCN(CC(=O)O)CCN(CC(=O)O)CC2)C(=O)NCCOCCOCCOCCOCCC(=O)N[C@@H](CCC(=O)NCC(=O)NCC(=O)NCC(=O)NCCCC[C@@H]2NC(=O)[C@@H](Cc3ccccc3)NC(=O)[C@H](CC(=O)O)NC(=O)CNC(=O)[C@H](CCCNC(=N)N)NC2=O)C(=O)NCC(=O)NCC(=O)NCC(=O)NCCCC[C@@H]2NC(=O)[C@@H](Cc3ccccc3)NC(=O)[C@H](CC(=O)O)NC(=O)CNC(=O)[C@H](CCCNC(=N)N)NC2=O)C(=O)NCC(=O)NCC(=O)NCC(=O)NCCCC[C@@H]2NC(=O)[C@@H](Cc3ccccc3)NC(=O)[C@H](CC(=O)O)NC(=O)CNC(=O)[C@H](CCCNC(=N)N)NC2=O)NC(=O)[C@@H](Cc2ccccc2)NC(=O)[C@H](CC(=O)O)NC(=O)CNC1=O [indium-111 labelled],,"athymic nude mice, female, U-87 MG glioma xenograft, tumour and lungs","intravenous, 72 h",reference: tumour over lungs,tumour to tissue ratio,8.73 ± 1.7
CSCC[C@H](NC(=O)[C@H](CC(C)C)NC(=O)[C@H](Cc1c[nH]cn1)NC(=O)CNC(=O)[C@@H](NC(=O)[C@H](C)NC(=O)[C@H](Cc1c[nH]c2ccccc12)NC(=O)[C@H](CCC(N)=O)NC(=O)CCCCCNC(=O)CNC(=O)CNC(=O)CNC(=O)CSC(C)=O)C(C)C)C(N)=O [technetium-99m labelled],,"Swiss mouse, liver","intravenous, 18.5 MBq, 30 min",,tissue uptake,2.79 ± 0.47 %ID/g
CC1(C)C(/C=C/C=C/C=C2/N(CCCCCC(=O)NCCCC[C@@H]3NC(=O)[C@@H](Cc4ccc(O)cc4)NC(=O)[C@H](CC(=O)O)NC(=O)CNC(=O)[C@H](CCCNC(=N)N)NC3=O)c3ccccc3C2(C)C)=[N+](CCCCn2nnc3c2-c2ccccc2CN(C(=O)CCC(=O)NCCNC(=O)CN(CCN(CC(=O)O)CC(=O)O)CCN(CC(=O)O)CC(=O)O)c2ccccc2-3)c2ccc(S(=O)(=O)[O-])cc21,,serum,,,unbound fraction,0.56

# Some of these lines once more:
Structure (SMILES),test,test system,conditions,scale,endpoint,result
CCCC[C@H](NC(=O)CNC(=O)CNC(=O)c1ccc(NN)nc1)C(=O)N[C@H]1CC(=O)NCCCC[C@@H](C(N)=O)NC(=O)[C@H](Cc2c[nH]c3ccccc23)NC(=O)[C@H](CCCNC(=N)N)NC(=O)[C@@H](Cc2ccccc2)NC(=O)[C@H](Cc2c[nH]cn2)NC1=O [technetium-99m labelled],,"C57 mouse, B16/F1 melanoma","2 h, together with: L-lysine",reference: tumour over blood,uptake ratio,157
